Measurements of several laboratories.
Every numbered part comes from another study and shows a few of its results, in no order.

Sample 1
Target: PABPC1L2, full length, GST fusion (mouse, UniProt A0ABA7IW68)
Method: RNAcompete
Form: RNA
Sample: in vitro
Concentration: 20 nM
Setting: 7-mer, probes averaged, single round
Relative to: mean of 7-mers
Direction: higher = stronger binding
Target sequence (chain): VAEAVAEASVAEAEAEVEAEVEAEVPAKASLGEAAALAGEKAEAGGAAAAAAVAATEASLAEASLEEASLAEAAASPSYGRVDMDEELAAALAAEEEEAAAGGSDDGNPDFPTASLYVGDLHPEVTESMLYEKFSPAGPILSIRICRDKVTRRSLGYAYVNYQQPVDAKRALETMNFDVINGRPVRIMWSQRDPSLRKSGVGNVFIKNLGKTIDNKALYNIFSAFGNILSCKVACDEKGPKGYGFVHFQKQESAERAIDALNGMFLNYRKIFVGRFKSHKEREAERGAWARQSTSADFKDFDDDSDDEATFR
`GUCUAAC` gave a 7-mer Z-score of -0.347.
The 7-mer Z-score of `AUAGGCG` is reported as 0.318.
`UGAGUAG` gave a 7-mer Z-score of -0.246.
The 7-mer Z-score of `GUAAGCA` is reported as 0.111.
With `CACCCGU` the 7-mer Z-score was -0.226.
`UAUCUGA` has a 7-mer Z-score of -0.122.
The 7-mer Z-score of `UUUAAAA` is reported as 1.48.
`GGUUUAU` gave a 7-mer Z-score of -0.224.
For `CCCCCGU`, the 7-mer Z-score was -0.485.
With `UACUUGA` the 7-mer Z-score was -0.079.
`CUGCAUU` gave a 7-mer Z-score of -0.309.
`CGGUGGA` has a 7-mer Z-score of 0.224.
The 7-mer Z-score of `CGUAUAC` is reported as -0.206.
For `CGAGGGA`, the 7-mer Z-score was 0.135.
With `ACAUGUC` the 7-mer Z-score was -0.00833.
`UACAGUA` has a 7-mer Z-score of -0.104.
The 7-mer Z-score of `CCGAUCU` is reported as -0.206.

Sample 2
Target: RNA binding protein fox-1 homolog 2, RRM domain, GST-SBP tag (RBFOX2, Homo sapiens, UniProt O43251-10, residues 100-194)
Method: RNA Bind-n-Seq
Form: RNA
Sample: in vitro
Concentration: 365 nM
Setting: natural RNA segment, single round, ends assumed
Relative to: no-protein control
Direction: higher = stronger binding
Shared flanks, not repeated: GGGAGUUCUACAGUCCGACGAUC … UGGAAUUCUCGGGUGCCAA
Construct (chain): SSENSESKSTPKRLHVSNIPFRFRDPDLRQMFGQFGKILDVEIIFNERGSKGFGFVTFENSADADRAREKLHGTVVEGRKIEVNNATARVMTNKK
`CUAAAAAUAGUUUAUUGUAUCUGACAAGAAACUUACUUAACCAUUGUGUCCUUCCCAUCUUUUUUGUCAUCUUUGUUUUCUUCAAAUGCCCUCCUCCCAUCUGCCUUGAG` — result for “RBNS enrichment (R)”: 1.49.
For `CCCUCGAGUGUGCAUGCCACCCUGGGGCUCUUCUCAGUCCUGGGCCCAAGUCCCUGAAGCCUAGCAGAGGGCCAGCUCGGGUGGCCAGAACACCCCUUGGUGCAGGCCUC`, “RBNS enrichment (R)” read 7.26.
Under “RBNS enrichment (R)”, `UACACACUUACCUGUCUCAGACUCACAUGUACUAUCAUCUGAUGUACUCUGAUUGGCUAGUUUGGGUUCAUUUUUACUGUAUAUUUAUAGUAAUAAAAUCAUGCAGCAAU` is recorded as 0.244.
`GGGGGGCGCUCUAGGGAGCCCCUUGUGCAGAUGCUCUUUAAAUAAUAAAGGUGGUUUUGAUUAAUGGUCUCUGCGUCUACAAACGGAAGCAGCGGUGUGGACAUUUUGAG` — result for “RBNS enrichment (R)”: 0.492.
`CCCACAUCUCUCUAAUGAUAAGACAUUGGCUCGCCUCUGACCAGAGCCCCAGCACCAGAGAGCGGAAGAUGCAGAAUUGUCAAAUGACCUGCUGGGGGAGGUUGUAGGAG` — result for “RBNS enrichment (R)”: 0.284.
For `CCACGGAUUUCUGCACACUCUGGGUCUGUGCUGGUGGAACAUUGCCAAUCAGUUCUUAAUGAGGCACCUGUGUGUAAAUACAUGCUUGGUCUUCUCUGCAGAGAACUGAG`, “RBNS enrichment (R)” read 0.664.
Under “RBNS enrichment (R)”, `GGAUCUCUCCAUGGGACUCUUUAACCAGGCUAGAACAGCUGUCUGCCAAAGAUACAAGAAUAUGCAAAGUCCCUCCUCCUAACCCUCCUUCCCUCUAAGUCGGUGGCUUG` is recorded as 0.452.
For `GCAGCUCCGUGGGGCCCUCCGCCCCAGCCCCAGCCAGCCAGGCCCUGGUGGAAAGGCUGGGAGCCGCACAGCCCUCCCCUCCUGCGCUGGAAACCCUCCCUGACCCCCAC`, “RBNS enrichment (R)” read 0.378.
For `AUUUGAUCAUUAUAAGAAGUGUGGGACUCAAGCACAGGAAACUGAACUCUUUUGGUGUCAUUGGAUGUUUCAUUUUUGACACUAAUUUUUUCUGGACAAACUCUUUAUGU`, “RBNS enrichment (R)” read 0.613.
`CUAGCACUGUCUUCCUUUGUAUUUGUCAGAUUUAUGAUGCAUUGUUUCAGUCUACCCUUAAAGAAGUCAAGCCAAAAAUAGAGGUGAGGGCUACUUUGCUUCUUAAUGUA`: “RBNS enrichment (R)” 0.629.
For `CUCACCUACCUCCUGGAGCAUGUGCUGCUGCCCAGCUGAGCGGCUGCCGCCCCACCCUGUGCUCUCCGGAUCCCACUAGCCACAGGCAUCUCCAGGAGGGCCCGGGGCUC`, “RBNS enrichment (R)” read 0.462.
Under “RBNS enrichment (R)”, `CCUGUCUCAGAAAAAAAGAAAAUUCAAGGCCAGUUAAGACAAAAUGCUAUGACUUUGAAAUUCACAGAAAGAAAUAACAGUUUAGAUUAGGUCUUCAGGUAUUCAGGAUA` is recorded as 0.327.

Sample 3
Target: Interferon regulatory factor 5, full length, phosphomimetic (IRF5, Homo sapiens, UniProt Q13568-2, residues 1-514, K96S/S451D/S453D/S456D/S462D)
Method: protein-binding microarray
Form: double-stranded DNA, one strand shown
Sample: in vitro
Concentration: 250 nM
Setting: 60-bp whole probe
With: salmon DNA 0.4 mg/ml
Relative to: random background probes
Direction: higher = stronger binding
Shared flanks, not repeated: GCCTAGCAC … GTCTTGATTCGCTTGACGCTGCTG
For `CTCTCTTCACATATAATTTTGTGCTAG`, the log fluorescence was 0.685 z-score.
For `TTAGAACTGGGGACTGGATTAGTGCTA`, the log fluorescence was -0.351 z-score.
The log fluorescence of `GACGATTTCGTGTATCGAGACGTGCTA` is reported as 1.87 z-score.
For `GTCGGTATCGACTATCGGGACGTGCTA`, the log fluorescence was 4.93 z-score.
For `TCCATGCTGGCTTTTATGCGGTGCTAG`, the log fluorescence was -0.672 z-score.
`GACCGTATCCTTATCCTGACGTGCTAG` has a log fluorescence of -0.122 z-score.
`GACGGTCTCGGTCTCGGCACGTGCTAG` has a log fluorescence of 0.0187 z-score.
`GCCGGTTCCCTTTTCCTGACGTGCTAG` gave a log fluorescence of 0.147 z-score.
With `TTAGGTCTCGAACTGGGTTAGTGCTAG` the log fluorescence was -0.207 z-score.
`TTAGGTAACGGTATCGGTTAGTGCTAG` has a log fluorescence of 4.5 z-score.
With `GTCAGGGGTCTTGCTCTGTAGTGCTAG` the log fluorescence was -0.876 z-score.

Single results of other studies
For `PhoQ, residues 284 288 289 292 302 303 NLCILV`, the fold induction was 0.577 (PhoP, residues 12 14 15 18 19 LHATL (Escherichia coli, UniProt P23836); Sort-seq, refers to: YFP reporter; E. coli; PhoQ-PhoP variant library, with: 10 µM Mg2+; relative to: high Mg2+ state, higher = stronger signaling).
